Measured values from different studies.
Each numbered part is a random draw from the data of one study; scales do not carry over between parts. Positions count from the first letter of the parent shown.

Sample 1
Target: PABPC1L2, full length, GST fusion (mouse, UniProt A0ABA7IW68)
Method: RNAcompete
Molecule type: RNA
Medium: in vitro
Tested at: 20 nM
Notes: 7-mer, probes averaged, single round
Baseline: mean of 7-mers
Direction: higher = stronger binding
Endpoint: 7-mer Z-score
Target sequence (chain): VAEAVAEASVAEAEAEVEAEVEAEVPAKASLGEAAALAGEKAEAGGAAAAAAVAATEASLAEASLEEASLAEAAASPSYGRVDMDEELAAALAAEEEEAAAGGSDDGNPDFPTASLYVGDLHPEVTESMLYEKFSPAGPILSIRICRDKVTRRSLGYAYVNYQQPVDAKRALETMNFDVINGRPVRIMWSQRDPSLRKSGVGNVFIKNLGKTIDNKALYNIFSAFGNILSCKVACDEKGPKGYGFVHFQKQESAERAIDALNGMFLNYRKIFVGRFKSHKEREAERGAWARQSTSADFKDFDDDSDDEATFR
UUUACUG: 0.0388
AGUUGCA: -0.155
GACGACU: -0.0246
UUGCUGA: -0.168
ACUACCA: -0.2
CUAGCGC: -0.242
UUCAAAG: -0.217
UACGCAG: -0.182

Sample 2
Target: CCNF, cyclin fold, Cln2 fusion (human)
Method: yeast growth competition, sequencing
Medium: yeast
Notes: strong parent motif
Baseline: not given
Direction: higher = stronger binding
Endpoint: normalised enrichment score
Parent: viral docking peptide; TSVRRALFTGGSD
R5Q: 1.18
R5K F8L: 0.344
L7W: 0.547
F8C: 1
V3R: 1.28
R4D: 0.623
T9K: 8.93
S12D: 8.08
T9S: 8.43
V3I: 8.34
R5G: 0.124
F8A: 0.711
R4S: 6.57
G10N: 8.24
S12P: 8.39
S2G: 8.55
F8S: 0.981
L7H: -0.109
F8M: 2.48
S2C: 8.17

Sample 3
Molecule: KRT18 (Homo sapiens, UniProt P05783)
Method: cross-linking MS
Medium: cells
Together with: BSPNO
Endpoint: cross-linked residues
ARMCX3 (Homo sapiens, UniProt Q9UH62): K187 to M1
Leucine-rich repeat transmembrane protein 3 (Homo sapiens, UniProt Q8NDH2): K187 to K6039
DSP (Homo sapiens, UniProt P15924): K187 to K2451
KRT74 (Homo sapiens, UniProt Q7RTS7): K247 to K150

Sample 4
Target: Ras GTPase-activating protein-binding protein 1, full length (G3BP1, Homo sapiens, UniProt Q13283)
Chain of UniProt Q13283 (whole entry, looked up): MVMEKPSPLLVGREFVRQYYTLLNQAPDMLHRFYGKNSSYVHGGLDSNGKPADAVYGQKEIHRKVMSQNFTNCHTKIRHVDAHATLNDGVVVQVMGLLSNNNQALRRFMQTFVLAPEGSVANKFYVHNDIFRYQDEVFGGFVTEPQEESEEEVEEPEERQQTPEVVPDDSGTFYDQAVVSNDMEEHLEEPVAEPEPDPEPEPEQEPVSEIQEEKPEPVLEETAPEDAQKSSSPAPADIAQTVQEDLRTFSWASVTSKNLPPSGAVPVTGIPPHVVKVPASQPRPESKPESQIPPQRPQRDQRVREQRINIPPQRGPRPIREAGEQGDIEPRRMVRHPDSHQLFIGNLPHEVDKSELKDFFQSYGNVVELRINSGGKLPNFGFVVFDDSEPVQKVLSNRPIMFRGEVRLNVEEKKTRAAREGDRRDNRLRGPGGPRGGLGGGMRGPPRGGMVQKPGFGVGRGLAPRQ
Method: RNA Bind-n-Seq
Molecule type: RNA
Medium: in vitro
Tested at: 200 nM
Notes: whole 134-nt RNA, ends assumed
Together with: 150 mM KCl
Baseline: input library
Direction: higher = stronger binding
Endpoint: log2 enrichment
Shared flanks, not repeated: GGGAGUUCUACAGUCCGACGAUC … UGGAAUUCUCGGGUGUCAAGG
AAGUCCUGUGCUACACAUCGUAUGUACCGAAUCGGGUGGGUUUUUGGGAAAAAGGGAAAGUAUUAUGUUACGCCGUUCGGAUCUGCACUU: 0.0773
UAACUUUAGAGGAGGAUCUGAUGGAUAUGGCGGUGGACGUGGAUUUGGGGAUGGCUAUAAUGGGUAUGGAGGAGGACCUGGAGGUGGCAA: 0.414
GCAGGAAGUAAAAACAAAUGGAAAUGCUUCGGAUAGUGGCAGGGGUGGGGGUCGCUAAGGAAAGGGUGGGAUGGGAGUGGGUAAAGAGUU: 0.624
UGGCCCUGGUGGCAUGCGGGGAGGAAGACGUGGCCUCAUGGAUCGUGGUGGUCCCGGUGGAAUGUUCAGAGGUGGCCGUGGUGGAGACAG: 0.154
AGUCCUGUGCUACACAUCGUAUGUACCGAAUCGGGAAAAAGGGUUUUUUUGGGUGGGAAAGUAUUAUGUUACGCCGUUCGGAUCUGCACU: 0.0654
UCAAGUCCUGUGCUACACAUCGUAUGUACCGAAUCGGAAAGGGGAAAGGGAAAGGAAAGUAUUAUGUUACGCCGUUCGGAUCUGCACUUC: -0.798
GCAGGAAGUAAAAACAAAUGGAAAUGCUUCGGAUAGUGGCAGGGGUGGGGGUUGCUAAGGAAGGGGUGGGAUGGGAGUGGGUAAAGAGUU: 0.736
ACCAUGCAGAAAGGCAUCUUUGGGAAGUGGGGCAAGGGGGGGAUAGGGAGGGGGGUAACACUUUGGGAACAGGUGGUCCCAGGUCGUUUC: 1.42

Single results of other studies
Method: cross-linking MS
Medium: cell fractions
UPF1 (Homo sapiens, UniProt Q92900)
cross-linked residues (UPF2 (Homo sapiens, UniProt Q9HAU5); together with: DSSO): K929 to K863

SURF6 (Homo sapiens, UniProt O75683)
cross-linked residues (SPTB (Homo sapiens, UniProt P11277); together with: DMTMM): E316 to K1641

MBD3 (Homo sapiens, UniProt O95983)
cross-linked residues (GATAD2A (Homo sapiens, UniProt Q86YP4); together with: DSSO): K227 to K126

SNRNP200 (Homo sapiens, UniProt O75643)
cross-linked residues (PGD (Homo sapiens, UniProt P52209); together with: DSSO): T1409 to K59

A few entries again (sample 2):
V3I: 8.34
R5G: 0.124
F8A: 0.711
R4S: 6.57
G10N: 8.24
